Measurements from different studies.
Every numbered part comes from another study and shows a few of its results, in no order.
UniProt Q9P286, sequence (whole entry, looked up): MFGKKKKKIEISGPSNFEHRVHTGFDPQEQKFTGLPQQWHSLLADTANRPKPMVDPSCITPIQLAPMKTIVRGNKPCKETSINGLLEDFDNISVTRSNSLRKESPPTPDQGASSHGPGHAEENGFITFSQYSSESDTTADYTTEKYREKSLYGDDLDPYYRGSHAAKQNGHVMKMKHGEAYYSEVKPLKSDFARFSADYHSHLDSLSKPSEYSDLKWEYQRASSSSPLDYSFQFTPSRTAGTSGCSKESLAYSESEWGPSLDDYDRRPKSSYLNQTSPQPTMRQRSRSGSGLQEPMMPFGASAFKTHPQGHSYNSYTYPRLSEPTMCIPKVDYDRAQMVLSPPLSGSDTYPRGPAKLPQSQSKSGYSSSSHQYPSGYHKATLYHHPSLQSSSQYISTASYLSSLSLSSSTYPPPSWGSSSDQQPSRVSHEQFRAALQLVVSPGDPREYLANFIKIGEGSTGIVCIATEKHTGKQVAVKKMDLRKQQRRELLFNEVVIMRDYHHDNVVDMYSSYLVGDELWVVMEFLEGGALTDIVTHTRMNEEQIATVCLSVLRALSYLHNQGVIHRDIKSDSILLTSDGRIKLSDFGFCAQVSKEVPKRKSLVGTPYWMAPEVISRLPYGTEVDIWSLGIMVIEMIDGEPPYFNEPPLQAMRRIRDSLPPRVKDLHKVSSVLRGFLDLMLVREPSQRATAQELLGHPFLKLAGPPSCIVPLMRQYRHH
UniProt O15264, sequence (whole entry, looked up): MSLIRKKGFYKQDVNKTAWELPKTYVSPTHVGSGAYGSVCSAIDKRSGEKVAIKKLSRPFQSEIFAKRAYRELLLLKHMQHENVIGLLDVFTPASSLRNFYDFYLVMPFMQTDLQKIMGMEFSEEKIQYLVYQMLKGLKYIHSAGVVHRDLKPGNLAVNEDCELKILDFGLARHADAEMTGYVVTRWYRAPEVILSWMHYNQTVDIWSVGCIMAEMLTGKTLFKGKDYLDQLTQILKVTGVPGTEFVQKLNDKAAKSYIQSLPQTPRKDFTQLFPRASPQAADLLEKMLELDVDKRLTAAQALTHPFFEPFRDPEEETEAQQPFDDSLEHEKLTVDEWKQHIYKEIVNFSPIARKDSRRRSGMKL
UniProt O94804, sequence (whole entry, looked up): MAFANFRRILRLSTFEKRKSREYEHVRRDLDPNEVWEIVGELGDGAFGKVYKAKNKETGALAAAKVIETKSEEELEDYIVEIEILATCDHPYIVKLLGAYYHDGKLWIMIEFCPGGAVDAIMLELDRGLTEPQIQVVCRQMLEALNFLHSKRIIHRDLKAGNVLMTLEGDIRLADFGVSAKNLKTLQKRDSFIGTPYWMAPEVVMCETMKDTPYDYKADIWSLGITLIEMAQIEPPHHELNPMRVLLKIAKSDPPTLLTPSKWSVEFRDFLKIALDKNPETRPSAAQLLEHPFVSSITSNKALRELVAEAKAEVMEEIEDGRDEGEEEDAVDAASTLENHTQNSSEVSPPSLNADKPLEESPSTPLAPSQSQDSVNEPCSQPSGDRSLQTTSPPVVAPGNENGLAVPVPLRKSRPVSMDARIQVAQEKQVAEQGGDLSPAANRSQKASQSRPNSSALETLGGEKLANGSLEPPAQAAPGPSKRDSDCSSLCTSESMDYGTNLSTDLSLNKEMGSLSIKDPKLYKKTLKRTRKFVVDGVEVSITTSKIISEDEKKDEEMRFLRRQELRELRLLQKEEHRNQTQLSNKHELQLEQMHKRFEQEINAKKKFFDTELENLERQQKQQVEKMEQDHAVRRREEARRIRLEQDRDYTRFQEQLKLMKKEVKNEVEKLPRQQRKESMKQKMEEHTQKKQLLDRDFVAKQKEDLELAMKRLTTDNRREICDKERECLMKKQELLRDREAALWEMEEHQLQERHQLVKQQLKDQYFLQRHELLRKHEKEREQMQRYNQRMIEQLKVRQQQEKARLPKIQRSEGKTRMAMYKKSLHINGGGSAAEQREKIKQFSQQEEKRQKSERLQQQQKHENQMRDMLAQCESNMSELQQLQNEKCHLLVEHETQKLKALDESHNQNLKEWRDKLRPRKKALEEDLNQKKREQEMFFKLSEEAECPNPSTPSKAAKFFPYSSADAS
UniProt P51812, sequence (whole entry, looked up): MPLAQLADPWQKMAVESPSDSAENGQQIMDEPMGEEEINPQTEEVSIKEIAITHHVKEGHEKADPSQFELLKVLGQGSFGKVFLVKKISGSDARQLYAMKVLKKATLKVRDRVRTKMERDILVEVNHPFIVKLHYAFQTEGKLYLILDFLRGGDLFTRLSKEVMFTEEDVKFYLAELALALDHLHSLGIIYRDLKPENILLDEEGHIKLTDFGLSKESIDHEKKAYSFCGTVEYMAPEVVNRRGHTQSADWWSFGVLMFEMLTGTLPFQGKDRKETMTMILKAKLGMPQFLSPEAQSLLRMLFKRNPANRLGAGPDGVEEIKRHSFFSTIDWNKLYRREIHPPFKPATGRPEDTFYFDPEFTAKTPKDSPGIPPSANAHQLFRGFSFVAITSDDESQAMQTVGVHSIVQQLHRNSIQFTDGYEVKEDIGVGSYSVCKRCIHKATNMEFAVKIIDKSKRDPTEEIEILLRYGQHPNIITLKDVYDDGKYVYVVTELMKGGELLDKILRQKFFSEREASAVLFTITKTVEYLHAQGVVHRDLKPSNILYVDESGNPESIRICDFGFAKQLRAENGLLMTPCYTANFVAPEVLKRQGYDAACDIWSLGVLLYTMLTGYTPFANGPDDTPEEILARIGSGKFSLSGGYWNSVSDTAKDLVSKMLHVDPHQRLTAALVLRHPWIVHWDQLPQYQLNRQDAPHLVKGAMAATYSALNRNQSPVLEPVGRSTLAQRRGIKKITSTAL
UniProt Q9P2K8, sequence (whole entry, unmodified, looked up): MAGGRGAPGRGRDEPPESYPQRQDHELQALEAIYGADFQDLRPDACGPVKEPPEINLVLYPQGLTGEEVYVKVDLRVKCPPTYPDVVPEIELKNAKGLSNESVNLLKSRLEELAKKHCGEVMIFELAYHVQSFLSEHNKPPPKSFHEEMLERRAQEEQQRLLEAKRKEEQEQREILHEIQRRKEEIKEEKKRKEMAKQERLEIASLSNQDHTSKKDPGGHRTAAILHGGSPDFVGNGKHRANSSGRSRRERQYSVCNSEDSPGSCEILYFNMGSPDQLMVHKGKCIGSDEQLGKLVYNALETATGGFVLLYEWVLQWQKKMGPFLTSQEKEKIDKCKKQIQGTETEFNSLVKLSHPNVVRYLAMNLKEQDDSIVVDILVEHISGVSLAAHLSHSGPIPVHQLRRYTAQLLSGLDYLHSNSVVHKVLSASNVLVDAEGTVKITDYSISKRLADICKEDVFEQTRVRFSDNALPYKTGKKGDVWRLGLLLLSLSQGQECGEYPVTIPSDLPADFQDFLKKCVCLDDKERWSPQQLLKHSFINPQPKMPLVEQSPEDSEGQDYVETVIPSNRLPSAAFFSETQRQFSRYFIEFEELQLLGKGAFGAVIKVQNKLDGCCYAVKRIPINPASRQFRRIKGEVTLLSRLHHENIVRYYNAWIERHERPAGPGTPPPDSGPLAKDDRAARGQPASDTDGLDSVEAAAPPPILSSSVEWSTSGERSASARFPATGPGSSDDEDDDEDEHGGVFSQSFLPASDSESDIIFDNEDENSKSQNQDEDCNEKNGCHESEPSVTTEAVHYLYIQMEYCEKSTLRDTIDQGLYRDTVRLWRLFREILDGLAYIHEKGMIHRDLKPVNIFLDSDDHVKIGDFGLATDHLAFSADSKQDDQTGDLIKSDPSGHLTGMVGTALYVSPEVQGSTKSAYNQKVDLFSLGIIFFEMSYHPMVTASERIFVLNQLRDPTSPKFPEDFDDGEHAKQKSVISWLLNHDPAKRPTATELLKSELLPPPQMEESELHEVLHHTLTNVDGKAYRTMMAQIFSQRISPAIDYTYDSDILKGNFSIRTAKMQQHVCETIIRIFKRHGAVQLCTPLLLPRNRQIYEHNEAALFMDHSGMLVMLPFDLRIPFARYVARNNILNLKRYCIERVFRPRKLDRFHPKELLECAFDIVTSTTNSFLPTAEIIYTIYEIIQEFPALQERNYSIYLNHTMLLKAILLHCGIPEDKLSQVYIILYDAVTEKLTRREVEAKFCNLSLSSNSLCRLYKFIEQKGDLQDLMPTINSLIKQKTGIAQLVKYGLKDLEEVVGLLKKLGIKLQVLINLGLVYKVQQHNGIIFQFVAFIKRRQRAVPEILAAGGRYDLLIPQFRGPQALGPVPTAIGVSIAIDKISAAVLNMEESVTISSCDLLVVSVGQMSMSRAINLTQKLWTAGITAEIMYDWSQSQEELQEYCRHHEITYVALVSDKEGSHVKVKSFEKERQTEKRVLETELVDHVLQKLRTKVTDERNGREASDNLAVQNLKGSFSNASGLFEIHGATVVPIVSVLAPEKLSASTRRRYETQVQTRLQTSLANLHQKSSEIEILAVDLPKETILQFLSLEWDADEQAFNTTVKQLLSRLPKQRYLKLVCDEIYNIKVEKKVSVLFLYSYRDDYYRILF
UniProt P49761, sequence (whole entry, looked up): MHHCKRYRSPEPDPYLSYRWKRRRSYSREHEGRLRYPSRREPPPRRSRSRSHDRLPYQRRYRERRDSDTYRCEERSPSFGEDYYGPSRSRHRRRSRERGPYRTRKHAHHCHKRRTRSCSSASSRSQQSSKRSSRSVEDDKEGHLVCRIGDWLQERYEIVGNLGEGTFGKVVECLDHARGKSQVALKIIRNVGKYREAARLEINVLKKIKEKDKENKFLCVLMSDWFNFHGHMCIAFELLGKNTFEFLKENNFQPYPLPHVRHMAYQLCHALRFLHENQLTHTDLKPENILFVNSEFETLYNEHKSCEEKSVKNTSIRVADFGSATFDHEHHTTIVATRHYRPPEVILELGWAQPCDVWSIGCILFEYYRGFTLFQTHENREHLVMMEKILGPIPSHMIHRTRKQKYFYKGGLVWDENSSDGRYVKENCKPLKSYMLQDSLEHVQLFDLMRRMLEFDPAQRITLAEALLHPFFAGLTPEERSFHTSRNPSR

Set 1
SMILES: CO[C@@H]1[C@H](N(C)C(=O)c2ccccc2)C[C@H]2O[C@]1(C)n1c3ccccc3c3c4c(c5c6ccccc6n2c5c31)C(=O)NC4
Action: inhibitor
Tested at: 1 µM
| target | assay | inhibition [%] |
| --- | --- | --- |
| eIF-2-alpha kinase GCN2 (EIF2AK4, Homo sapiens, UniProt Q9P2K8, S808G) | – | 99 |
| Mitogen-activated protein kinase 13 (MAPK13, Homo sapiens, UniProt O15264) | enzyme activity | 0 |
| Dual specificity protein kinase CLK3 (CLK3, Homo sapiens, UniProt P49761) | enzyme activity | 9 |
| Rhodopsin kinase GRK7 (GRK7, Homo sapiens, UniProt Q8WTQ7) | enzyme activity | 99 |
| Ephrin type-A receptor 3 (EPHA3, Homo sapiens, UniProt P29320) | enzyme activity | 0 |
| Dual specificity tyrosine-phosphorylation-regulated kinase 1A (DYRK1A, Homo sapiens, UniProt Q13627) | enzyme activity | 96 |
| TGF-beta receptor type-1 (TGFBR1, Homo sapiens, UniProt P36897) | enzyme activity | 3 |
| Cyclin-dependent kinase 11B (CDK11B, Homo sapiens, UniProt P21127) | enzyme activity | 0 |

Set 2
Structure (SMILES): CCCCN(CCCC)C(=O)CN1C[C@H](c2cc(OC)c3c(c2)OCO3)[C@@H](C(=O)O)[C@@H]1CC(C)(C)CCC
Method: competition with immobilised ligand
Tested at: 1 µM
| target | assay | remaining binding |
| --- | --- | --- |
| Phosphatidylinositol 5-phosphate 4-kinase type-2 gamma (PIP4K2C, Homo sapiens, UniProt Q8TBX8) | cell-free assay | 100% |
| Tyrosine-protein kinase ABL1, non-phosphorylated (ABL1, Homo sapiens, UniProt P00519, H396P) | cell-free assay | 96.3% |
| Non-receptor tyrosine-protein kinase TYK2, JH2 (TYK2, Homo sapiens, UniProt P29597) | cell-free assay | 85.9% |
| Ribosomal protein S6 kinase alpha-3, C-terminal kinase domain (RPS6KA3, Homo sapiens, UniProt P51812) | cell-free assay | 54.9% |
| Myosin-IIIb (MYO3B, Homo sapiens, UniProt Q8WXR4) | binding | 88.6% |
| Serine/threonine-protein kinase PAK 5 (PAK5, Homo sapiens, UniProt Q9P286) | cell-free assay | 93.8% |
| cGMP-dependent protein kinase 2 (PRKG2, Homo sapiens, UniProt Q13237) | cell-free assay | 100% |
| Vascular endothelial growth factor receptor 1 (FLT1, Homo sapiens, UniProt P17948) | cell-free assay | 100% |
| Serine/threonine-protein kinase 10 (STK10, Homo sapiens, UniProt O94804) | cell-free assay | 100% |
| Tyrosine-protein kinase JAK3, JH1 (JAK3, Homo sapiens, UniProt P52333) | cell-free assay | 71.3% |

Set 3
Target: Serine/threonine-protein kinase PAK 5 (PAK5, Homo sapiens, UniProt Q9P286)
Observed: enzyme activity
Action: inhibitor
Tested at: 0.5 µM
Baseline: control
| Structure (SMILES) | remaining activity [%] |
| --- | --- |
| O=C1NC(=O)C(c2cn(CCCn3ccnc3)c3ccccc23)=C1Nc1ccccc1 | 94.2 |
| CC(C)[C@H](CO)Nc1nc(Nc2cc(N)cc(Cl)c2)c2ncn(C(C)C)c2n1 | 44.3 |
| COc1cc2nccc(Oc3ccc(NC(=S)NC(=O)c4ccccc4C)cc3)c2cc1OC | 102 |
| Cc1nc(-c2ccccc2)c(-c2ccncc2)o1 | 96.1 |
| Cn1sc(=O)n(Cc2ccccc2)c1=O | 81.1 |
| COc1cc2ncnc(Nc3ccc(Oc4ccccc4)cc3)c2cc1OC | 103 |
| NCCNc1ncc(C(N)=O)c(Nc2cccc(C(F)(F)F)c2)n1 | 57.3 |
| Oc1ccc(-c2nc(-c3ccncc3)c(-c3ccc(F)cc3)[nH]2)cc1 | 107 |
| COc1cc2ncnc(Nc3ccc(F)c(Cl)c3)c2cc1OCCCN1CCOCC1 | 97.4 |
| CNC(=O)c1cc(Oc2ccc(NC(=O)Nc3ccc(Cl)c(C(F)(F)F)c3)cc2)ccn1 | 95.9 |
| Cc1ccc(NC(=O)c2ccc(CN3CCN(C)CC3)cc2)cc1Nc1nc(-c2cccnc2)cs1 | 92 |
| O=c1c2ccccc2[nH]c(=S)n1CCN1CCC(=C(c2ccc(F)cc2)c2ccc(F)cc2)CC1 | 97.4 |
| COc1ccc(CNC(=O)Nc2ncc([N+](=O)[O-])s2)cc1 | 95.4 |
| CN(C)c1ccc(C=C2C(=O)Nc3ccccc32)cc1 | 101 |
| COc1ccc(C(=O)Nc2sc3c(c2C(N)=O)CCCC3)cc1OC | 96.6 |

Set 4
SMILES: CC(C)n1cnc(-c2ccc(F)cc2)c1-c1ncc(C(=O)Nc2ccc(N3CCN(C)CC3)cc2)[nH]1
Species: patients with idiopathic pulmonary fibrosis
Notes: trial
| assay | conditions | patients discontinuing for adverse event |
| --- | --- | --- |
| measured: acute IPF exacerbation | 60 mg once daily | 5.6% |
| measured: liver function abnormal | 60 mg once daily | 5.6% |
| measured: drug-induced liver injury | 30 mg twice daily | 11.1% |
| measured: elevated ALT or AST | 30 mg twice daily | 5.6% |

Excerpt of the above (set 2):
| target | assay | remaining binding |
| --- | --- | --- |
| Phosphatidylinositol 5-phosphate 4-kinase type-2 gamma (PIP4K2C, Homo sapiens, UniProt Q8TBX8) | cell-free assay | 100% |
| Tyrosine-protein kinase ABL1, non-phosphorylated (ABL1, Homo sapiens, UniProt P00519, H396P) | cell-free assay | 96.3% |
| Non-receptor tyrosine-protein kinase TYK2, JH2 (TYK2, Homo sapiens, UniProt P29597) | cell-free assay | 85.9% |
| Ribosomal protein S6 kinase alpha-3, C-terminal kinase domain (RPS6KA3, Homo sapiens, UniProt P51812) | cell-free assay | 54.9% |
| Myosin-IIIb (MYO3B, Homo sapiens, UniProt Q8WXR4) | binding | 88.6% |
| Serine/threonine-protein kinase PAK 5 (PAK5, Homo sapiens, UniProt Q9P286) | cell-free assay | 93.8% |
